Experimental data of several laboratories.
Each numbered part is a random draw from the data of one study; scales do not carry over between parts.

Set 1
Target: Histone acetyltransferase KAT6A, winged helix 2, GST fusion (KAT6A, Homo sapiens, UniProt Q92794, residues 85-181)
Method: protein binding microarray
Form: double-stranded DNA, one strand shown
Sample: in vitro
Concentration: not given
Setting: 8-mer, flanks averaged, mean of 2 arrays, mostly near background
Relative to: not given
Reading: higher = stronger binding
Target sequence (chain): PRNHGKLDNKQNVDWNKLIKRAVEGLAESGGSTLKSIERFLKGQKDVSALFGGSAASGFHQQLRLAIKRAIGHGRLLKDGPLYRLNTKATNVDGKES
The E-score of `AAGAAAGG` is reported as 0.0701.
`AAAAAAAC` has an E-score of -0.0736.
With `TACGCCGA` the E-score was -0.108.
The E-score of `CAAAGCAC` is reported as 0.044.
`AGGAACCT` has an E-score of 0.0748.
`GACAGCGC` gave an E-score of 0.158.
`CGTGGATA` has an E-score of -0.206.
For `CCAAGTAG`, the E-score was 0.00226.
For `ACGAATGC`, the E-score was -0.0802.
With `ACCCCCCA` the E-score was -0.123.
`AAAGCTAA` has an E-score of 0.0405.
With `CGCGGGGC` the E-score was 0.275.
`GTCCAAGA` has an E-score of -0.13.
For `ACACTACC`, the E-score was -0.206.
The E-score of `CAGGCATG` is reported as 0.0485.
With `AACCTCAC` the E-score was -0.117.
The E-score of `CCCCCTGC` is reported as -0.000455.

Set 2
Target: Ras GTPase-activating protein-binding protein 1, full length (G3BP1, Homo sapiens, UniProt Q13283)
Sequence of UniProt Q13283 (whole entry, looked up): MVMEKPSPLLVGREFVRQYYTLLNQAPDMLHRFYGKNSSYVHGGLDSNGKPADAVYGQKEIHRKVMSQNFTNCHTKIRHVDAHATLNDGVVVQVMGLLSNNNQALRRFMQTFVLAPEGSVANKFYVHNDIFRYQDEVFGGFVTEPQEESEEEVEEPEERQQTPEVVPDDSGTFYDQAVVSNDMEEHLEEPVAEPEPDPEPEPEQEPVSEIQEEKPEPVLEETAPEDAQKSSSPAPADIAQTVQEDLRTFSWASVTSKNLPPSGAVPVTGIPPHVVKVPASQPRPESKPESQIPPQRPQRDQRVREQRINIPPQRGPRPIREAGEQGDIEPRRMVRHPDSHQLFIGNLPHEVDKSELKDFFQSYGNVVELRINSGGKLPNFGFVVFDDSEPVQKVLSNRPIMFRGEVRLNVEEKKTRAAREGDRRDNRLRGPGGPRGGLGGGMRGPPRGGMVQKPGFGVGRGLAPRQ
Method: RNA Bind-n-Seq
Form: RNA
Sample: in vitro
Concentration: 200 nM
Setting: whole 134-nt RNA, ends assumed
Added: 150 mM KCl
Relative to: input library
Reading: higher = stronger binding
For `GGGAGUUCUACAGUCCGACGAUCUGGCCCUGGUGGCAUGCGGGGAGGAAGAGGUGGCCUCAUGGAUCGUGGUGGUCCCGGUGGAAUGUGCAGAGGUGGCCGUGGUGGAGACAGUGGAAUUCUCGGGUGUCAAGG`, the log2 enrichment was 0.523.
The log2 enrichment of `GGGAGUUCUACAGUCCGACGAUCUCCUGUGCUACACAUCGUAUGUACCGAAUCAAAUUUUUAAAUUUUUAAACCCCCCCAAAAAAGUAUUAUGUUACGCCGUUCGGAUCUGCAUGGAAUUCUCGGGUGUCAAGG` is reported as 0.127.
With `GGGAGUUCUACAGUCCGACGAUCUGGGAGGUGGAUUUUGUUUAUUUUUUUAGGUCAUUUCCAGGGGUGGGAAUUUUUUUUUAAUAUGUGUCAUGAAUAAAGUUGUUUUUGAAAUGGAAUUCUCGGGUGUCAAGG` the log2 enrichment was 0.0911.
`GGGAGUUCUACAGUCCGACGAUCCAAGUCCUGUGCUACACAUCGUAUGUACCGAAUCGGCCCGGGGCCCGGGCCCGGGAAAGUAUUAUGUUACGCCGUUCGGAUCUGCACUUCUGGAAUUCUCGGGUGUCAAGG` gave a log2 enrichment of -0.506.
With `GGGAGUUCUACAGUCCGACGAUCUCAAGUCCUGUGCUACACAUCGUAUGUACCGAAUCGGAAAGGGGAAAGGGAAAGGAAAGUAUUAUGUUACGCCGUUCGGAUCUGCACUUCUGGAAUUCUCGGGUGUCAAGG` the log2 enrichment was -0.798.
For `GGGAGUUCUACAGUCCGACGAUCUGGCCCUGGCGGCAUGCGGGGAGGAAGAGGUGGCCUCAUGGAUCGUGGUGGUCCCGGUGGAAUGUUCAGAGGUGGCCGUGGUGGAGACAGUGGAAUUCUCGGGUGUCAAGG`, the log2 enrichment was 0.0984.
With `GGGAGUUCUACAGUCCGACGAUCUCAAGUCCUGUGCUACACAUCGUAUGUACCGAAUCGGGAGGGAGGGUUUUUGGGAAAGUAUUAUGUUACGCCGUUCGGAUCUGCACUUCCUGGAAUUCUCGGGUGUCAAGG` the log2 enrichment was 0.793.
`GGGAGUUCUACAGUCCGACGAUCCUCAAGUCCUGUGCUACACAUCGUAUGUACCGAAUCGGUUUUUGGAGGUUUGGAAAGUAUUAUGUUACGCCGUUCGGAUCUGCACUUCCAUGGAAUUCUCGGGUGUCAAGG` has a log2 enrichment of -0.64.
The log2 enrichment of `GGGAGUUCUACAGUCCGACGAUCGCAGGAAGUAAAAACAAAUGGAAAUGCUUCGGAUAGUGGCAGGGGUGGGGGUUGCUAAGGAAAGGGUGGGAUGGGAGUGAGUAAAGAGUUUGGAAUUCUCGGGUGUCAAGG` is reported as 0.819.
`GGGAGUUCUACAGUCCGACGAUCUGGGAGGUGGAUUUAGUUUAUUUUUUUAGCUCAUUUCCAGGGGUGGGAAUUUUUUUUUAAUAUGUGUCAUGAAUAAAGUUGUUUUUGAAAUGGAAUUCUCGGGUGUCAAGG` has a log2 enrichment of 0.163.

Set 3
Target: Interferon regulatory factor 5, full length, phosphomimetic (IRF5, Homo sapiens, UniProt Q13568-2, residues 1-514, K96S/S451D/S453D/S456D/S462D)
Method: protein-binding microarray
Form: double-stranded DNA, one strand shown
Sample: in vitro
Concentration: 250 nM
Setting: 60-bp whole probe
Added: salmon DNA 0.4 mg/ml
Relative to: random background probes
Reading: higher = stronger binding
All sequences stand within: GCCTAGCAC … GTCTTGATTCGCTTGACGCTGCTG
The log fluorescence of `TTAGGTATCGACACTGGGGTAGTGCTA` is reported as 2.11 z-score.
With `TTAGGTTTCCTACTGCTATAGTGCTAG` the log fluorescence was 0.382 z-score.
The log fluorescence of `TTAGGACTGGTCACTGGGTTAGTGCTA` is reported as -0.454 z-score.
With `GCCGGTTCCCTTTTCCTGACGTGCTAG` the log fluorescence was 0.147 z-score.
`TTAGGACTGAGTTTCGATTAGTGCTAG` gave a log fluorescence of 9.24 z-score.
With `TTAGGTCTCCGACTGCTTTAGTGCTAG` the log fluorescence was -0.461 z-score.
For `TTAGAACTGATTCTCGATTAGTGCTAG`, the log fluorescence was 0.866 z-score.
`TCACTTTTAATTTTTAAACTGTGCTAG` gave a log fluorescence of 0.98 z-score.
The log fluorescence of `TCAAGTCTGGGCTACAACACTGTGCTA` is reported as -0.677 z-score.
With `TTAGGTCTCTGACTGGGTTAGTGCTAG` the log fluorescence was -0.513 z-score.
`TCCATGCTGGCTTTTATGCGGTGCTAG` has a log fluorescence of -0.672 z-score.
`TCACATTTTGTTTTTCAACTGTGCTAG` gave a log fluorescence of 1.5 z-score.
`CTAGGTTTCGGGTTTCGGTTAGTGCTA` gave a log fluorescence of 9.87 z-score.
With `TTAGAACTGGGATTTCGATTAGTGCTA` the log fluorescence was 2.49 z-score.
With `CACGATATCAGTTTCGAGACGTGCTAG` the log fluorescence was 6.44 z-score.
For `CAGAATCCAGCTCAGGTTGTGTGCTAG`, the log fluorescence was -0.21 z-score.
The log fluorescence of `TTAGGACTGGGGTATCGGGTAGTGCTA` is reported as 0.543 z-score.

Set 4
Target: Centromere-binding protein 1, full length, N-terminal tag (CBF1, Saccharomyces cerevisiae, UniProt P17106, residues 1-351)
Sequence of UniProt P17106 (whole entry, looked up): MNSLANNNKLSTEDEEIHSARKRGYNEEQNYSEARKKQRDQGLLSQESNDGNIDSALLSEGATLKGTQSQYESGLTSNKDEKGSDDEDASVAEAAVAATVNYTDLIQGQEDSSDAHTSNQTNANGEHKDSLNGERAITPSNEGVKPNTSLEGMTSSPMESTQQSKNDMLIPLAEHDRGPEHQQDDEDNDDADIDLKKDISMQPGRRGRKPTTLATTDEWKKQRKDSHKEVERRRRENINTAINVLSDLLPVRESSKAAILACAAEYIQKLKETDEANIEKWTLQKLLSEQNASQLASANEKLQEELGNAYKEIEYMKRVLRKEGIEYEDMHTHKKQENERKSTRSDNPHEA
Method: protein-binding microarray
Form: double-stranded DNA, one strand shown
Sample: in vitro
Concentration: 0.8 µM
Setting: whole 60-bp probe, no competitor
Reading: higher = stronger binding
`GAAAAACTAAAAAAAAACGTGCTTACCTTGTGATAGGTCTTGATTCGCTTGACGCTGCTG` has a fluorescence intensity of 921 a.u.
The fluorescence intensity of `TGTACGAAGCTATATGGTGAGACTATAGTAGTTAGGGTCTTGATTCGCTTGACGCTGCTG` is reported as 514 a.u.
The fluorescence intensity of `GAATTAACGCTATAACGTGTAGTATGTACAGGCTAGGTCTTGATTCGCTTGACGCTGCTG` is reported as 559 a.u.
`GAATATATCTCGAGTCACCTTCAAAAATCAAACTAGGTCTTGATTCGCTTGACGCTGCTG` gave a fluorescence intensity of 558 a.u.
The fluorescence intensity of `CTAGGCCATCTTCGCCATCAGAGAGACCGTACCTTCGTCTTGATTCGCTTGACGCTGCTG` is reported as 520 a.u.
The fluorescence intensity of `CTACCCACCATCGACCACGTTTCGTCACCGGTCTTCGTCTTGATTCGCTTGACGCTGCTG` is reported as 563 a.u.
The fluorescence intensity of `TGTACGAAGCTATATCGCGTGTATATAGTAGTTAGGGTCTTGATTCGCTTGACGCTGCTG` is reported as 580 a.u.
`TGTACGAAGCTATTTCTGATGTTTATAGTAGTTAGGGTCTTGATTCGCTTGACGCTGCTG` has a fluorescence intensity of 537 a.u.
The fluorescence intensity of `GAACAACACACTCTTCCCGTGATGCGAATGGTATAGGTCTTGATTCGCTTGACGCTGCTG` is reported as 876 a.u.
`GAAAACTACCCTGACGTCATCAGCGAAATTCGTTAGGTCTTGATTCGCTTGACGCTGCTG` has a fluorescence intensity of 479 a.u.
`CTATCTGAGTAGTGTCACGAACGAGGAAAAAGATTCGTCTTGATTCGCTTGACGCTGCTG` has a fluorescence intensity of 631 a.u.
For `GAATGTCGTTACCCGCACGTTGTGTTTTTTGAGTAGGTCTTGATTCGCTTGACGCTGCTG`, the fluorescence intensity was 611 a.u.
With `GAATGGAAACTCCGACGCGTGAGGCCTCGCGTCTAGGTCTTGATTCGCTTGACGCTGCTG` the fluorescence intensity was 522 a.u.
The fluorescence intensity of `GAAAACGTTTTTTACCACGTTCCAACTCCGTCCTAGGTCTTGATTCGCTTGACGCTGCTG` is reported as 586 a.u.
For `GAAAAACGAGCCACTCACGTGAAAACATATAGATAGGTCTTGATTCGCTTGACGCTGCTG`, the fluorescence intensity was 3540 a.u.
The fluorescence intensity of `TGTACGAAGCTATATCACCCGAATATAGTAGTTAGGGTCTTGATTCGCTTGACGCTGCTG` is reported as 516 a.u.
The fluorescence intensity of `GAAATCCTGCGCGATCACGTAACATGCTATGAATAGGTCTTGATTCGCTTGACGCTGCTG` is reported as 685 a.u.
`CTACAATTTACTCCCCATGTGGGAGTTCTACGTTTCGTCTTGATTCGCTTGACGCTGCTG` gave a fluorescence intensity of 555 a.u.
With `GAAAAAAGGTCCGAAGACGTGTAAAGGATATATTAGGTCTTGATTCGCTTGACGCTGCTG` the fluorescence intensity was 544 a.u.
With `GAAAAAAATGAAGGTGACGCAAAAAAGGAATTGTAGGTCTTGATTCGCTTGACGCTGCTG` the fluorescence intensity was 570 a.u.
With `GAAATGGTTGTATTATTGGTGGTGTCAGTAGGGTAGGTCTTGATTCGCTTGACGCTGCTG` the fluorescence intensity was 556 a.u.
The fluorescence intensity of `CTACTCTTTAGCAATGGTGACATATAGATCTCATTCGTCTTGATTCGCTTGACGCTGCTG` is reported as 511 a.u.
`GAATCTTGTACATGTACCACCACGATAAGGCTGTAGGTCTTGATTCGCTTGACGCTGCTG` gave a fluorescence intensity of 515 a.u.
With `CTAAAGGCCAGTAGCAACAACACGTTTTCTTGGTTCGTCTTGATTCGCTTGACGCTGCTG` the fluorescence intensity was 614 a.u.
The fluorescence intensity of `CCTAACTACTATAACCACGTGTTATAGCTTCGTACAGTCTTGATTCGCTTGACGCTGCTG` is reported as 5440 a.u.

Some of these lines once more (set 3):
`TTAGGACTGAGTTTCGATTAGTGCTAG` gave a log fluorescence of 9.24 z-score.
With `TTAGGTCTCCGACTGCTTTAGTGCTAG` the log fluorescence was -0.461 z-score.
For `TTAGAACTGATTCTCGATTAGTGCTAG`, the log fluorescence was 0.866 z-score.
`TCACTTTTAATTTTTAAACTGTGCTAG` gave a log fluorescence of 0.98 z-score.
The log fluorescence of `TCAAGTCTGGGCTACAACACTGTGCTA` is reported as -0.677 z-score.
With `TTAGGTCTCTGACTGGGTTAGTGCTAG` the log fluorescence was -0.513 z-score.
`TCCATGCTGGCTTTTATGCGGTGCTAG` has a log fluorescence of -0.672 z-score.
`TCACATTTTGTTTTTCAACTGTGCTAG` gave a log fluorescence of 1.5 z-score.
`CTAGGTTTCGGGTTTCGGTTAGTGCTA` gave a log fluorescence of 9.87 z-score.
With `TTAGAACTGGGATTTCGATTAGTGCTA` the log fluorescence was 2.49 z-score.
